Published values from different studies.
Protocols differ between the studies behind these lines. ± marks the error that the study gave.
Cell line: HepG2

SMILES	assay	setting	IC50
O=C(Nc1ccccc1O)c1ccc(-c2ccc(Cl)cc2Cl)o1	cell growth or viability, MTT	–	6.98 µM
Oc1ccc2c(c1)OCc1c-2oc2cc3c(cc12)OCO3	cell growth or viability, MTT	72 h	13.4 µM
N#Cc1cccc(-c2ccc(=O)n(Cc3cccc(-c4ncc(OCC5CCN(CCCCCCC(=O)Nc6cccc7c6C(=O)N(C6CCC(=O)NC6=O)C7=O)CC5)cn4)c3)n2)c1 (stereo not drawn)	cell growth or viability, CCK-8	72 h	4.14 µM
COC(=O)CNc1cc(C[S+]([O-])c2ccc3cc(Br)ccc3c2)ccc1OC (stereo not drawn)	cell growth or viability, MTS	48 h	7.09 µM
C/C(=N\N=c1/[nH]c(-c2ccccc2)cs1)c1c(O)c2ccccc2oc1=O	cell growth or viability, MTT	48 h	47.6 µM
N#Cc1cccc(-c2ccc(=O)n(Cc3cccc(-c4ncc(OCC5CCN(CCC(=O)Nc6cccc7c6C(=O)N(C6CCC(=O)NC6=O)C7=O)CC5)cn4)c3)n2)c1 (stereo not drawn)	cell growth or viability, CCK-8	72 h	> 100 µM
COc1ccc(OC)c(C(c2c[nH]c3ccccc23)c2c[nH]c3ccccc23)c1	cell growth or viability, MTT	24 h	6.23 µM
CC(=O)O[C@H]1CC[C@]2(C)[C@H]3CC=C4[C@@H]5CC(C)(C)CC[C@]5(C(=O)O)CC[C@@]4(C)[C@]3(C)CC[C@H]2C1(C)C	cell growth or viability, SRB	–	32.5 µM
N#Cc1cc(C(=O)c2ccc3ccccc3c2O)c[nH]c1=O	cell growth or viability, MTT	48 h	34.6 µM
COc1cc(-c2ccc(C(=O)N/N=C/c3ccc(N(C)C)cc3)c(C)n2)cc(OC)c1OC	cell growth or viability, MTT	–	40.1 µM
CC1(C)CC[C@]2(C(=O)O)CC[C@]3(C)C(=CC[C@@H]4[C@@]5(C)CC[C@H](O[C@@H]6OC[C@H](O[C@@H]7O[C@H](CO)[C@@H](O)[C@H](O)[C@H]7O)[C@H](O)[C@H]6O)[C@@](C)(CO)[C@@H]5CC[C@]43C)[C@@H]2C1	NF-κB activity, inhibitor, luciferase	TNF-stimulated	1.12 µM
CSc1nc(N)c2c(F)c(C#N)c(F)c(Cl)c2n1	cell growth or viability, MTT	96 h	23.9 µM
COc1ccc(-c2ocnc2-c2cc(Br)c(OC)c(OC)c2)cc1OCCCC(=O)NO	cell growth or viability, crystal violet	48 h	0.6 µM
F[P-](F)(F)(F)(F)F.O=C(CCC(=O)c1ccccc1)NCCN(CC(=O)Nc1ccc(C#CCN(Cc2ccccn2)Cc2ccccn2)cc1)C(=O)CCc1cn(C[c-]2cccc2)nn1.[C-]#[O+].[C-]#[O+].[C-]#[O+].[Fe+2].[Re+].c1cc[cH-]c1	cell growth or viability, resazurin	48 h	> 100 µM
CCNc1cc2c(cc1C)C1(c3cc(C)c(NCC)cc3O2)c2ccccc2C(=O)N1N=Cc1c[c-]c(-c2ccccn2)cc1.Cc1c(C)c(-c2ccc(-c3ccccc3)cc2)[c-](C)c1C.[Cl-].[Ir+3]	cell growth, MTT	24 h	19.4 ± 7.5 µM
CC1OC(OCC2OC(Oc3cc(O)c4c(=O)cc(-c5ccc(O)c(O)c5)oc4c3)C(O)C(O)C2O)C(O)C(O)C1O (stereo not drawn)	cell growth or viability, resazurin	72 h	> 100 µM
COc1ccc(CN2C(=O)C(=O)c3cc(NC(C)=O)ccc32)cc1	cell growth or viability, MTT	48 h	0.42 µM
Cc1c(C(=O)NNC(=O)Nc2ccc([N+](=O)[O-])cc2)nnn1Cc1nc2ccccc2[nH]1	cell growth or viability, MTT	48 h	25 µM
C=CCc1ccc(OC(C)=O)c(OC)c1	MTT	24 h	> 50 µM
NC(=O)c1cccnc1.O=c1[nH]cc(F)c(=O)[nH]1.O=c1[nH]cc(F)c(=O)[nH]1.O=c1[nH]cc(F)c(=O)[nH]1	cell growth or viability, MTT	–	3.43 µM

SMILES	assay	setting	IC50
N#Cc1cccc(-c2ccc(=O)n(Cc3cccc(-c4ncc(OCC5CCN(CC(=O)NCCOCCNc6ccc7c(c6)C(=O)N(C6CCC(=O)NC6=O)C7=O)CC5)cn4)c3)n2)c1 (stereo not drawn)	cell growth or viability, CCK-8	72 h	1.54 µM
CC1=CC(OC(=O)c2ccccc2)C2(COC(=O)c3ccccc3)CCC(=C(C)C)C2C(O)CC2(C)OC2CC1 (stereo not drawn)	cell growth or viability, CCK-8	24 h	> 50 µM
CC(=O)OC[C@H]1O[C@@H](Sc2nc3c4cnn(C(=O)CNc5ccc(C)cc5)c4ncn3n2)[C@H](OC(C)=O)[C@@H](OC(C)=O)[C@H]1OC(C)=O	cell growth or viability, MTT	48 h	0.048 µM
CCC1=C(CC)C2=[N+]3C1=Cc1c(CC)c(CC)c4[n]1[Ir-3]31([C]#[N+]c3ccc(OC)cc3)([C]#[N+]c3ccc(OC)cc3)[n]3c(c(CC)c(CC)c3=CC3=[N+]1C(=C4)C(CC)=C3CC)=C2.F[B-](F)(F)F	cell growth or viability, MTT	72 h	> 100 µM
COc1ccc2nc(Cl)c(-c3nc4cc(Cl)ccc4[nH]3)cc2c1	cell growth or viability, MTT	48 h	14.1 µM
CC(C)(C)c1cc2c(O)c(c1)Cc1cc(C(C)(C)C)cc(c1OCC(=O)Nc1cncc3ccccc13)Cc1cc(C(C)(C)C)cc(c1O)Cc1cc(C(C)(C)C)cc(c1OCC(=O)Nc1cncc3ccccc13)COC2	cell growth or viability, MTT	72 h	2.3 µM
Cc1ccc2nc(Cl)c(-c3nc4cc(Cl)c(Cl)cc4[nH]3)cc2c1	cell growth or viability, MTT	48 h	> 100 µM
C[C@]12CC[C@@H]3c4ccc(O)cc4CC[C@H]3[C@@H]1CC[C@@]2(O)c1cn(CC(=O)c2cccc(F)c2)nn1	cell growth or viability, resazurin	72 h	28.2 µM
O=C(CCl)Sc1nnc(-c2n[nH]c(=O)c3ccccc23)o1	cell growth or viability, MTT	48 h	6.9 µM
NC(=S)NNC(=O)c1cc2ccccc2oc1=O	cell growth or viability, SRB	72 h	17.7 µM
O=C(NN=Cc1ccc(O)cc1)Nc1cc2c(Nc3ccc(F)c(Cl)c3)ncnc2cc1OC1CCOC1 (stereo not drawn)	cell growth or viability, MTT	72 h	0.07 µM
CC(C)Cn1cc(-c2ccnc(Nc3ccc(C(=O)Nc4ccccc4N)cc3)n2)nn1	cell growth or viability, SRB	72 h	5.12 µM
C/C(=N\NC(=S)SCc1ccccc1)c1ccc(S(=O)(=O)N2CCC(C)CC2)cc1	cell growth or viability, MTT	–	91.3 µM
C=C1C(=O)[C@@]23CC[C@@H]4C(C)(C)CCC[C@@]4(COC(C)=O)[C@@H]2[C@@H](O)C[C@@H]1C3 (single isomer, unassigned)	cell growth or viability, MTT	–	8 µM
CCOc1cccc2c1[O][Pt-2]1([Cl])[N+](=C2)CC[NH+]1c1ccccc1 (stereo not drawn)	cell viability, MTT	48 h	31.5 ± 0.98 µM
CC(=O)[O-].O.O.O.O.[Ni+2].[O-]c1ccc(Br)cc1C=NCCN1CCOCC1	cell viability, MTT	72 h	24.3 µg/mL
O=C(/C=C/c1ccc(O)cc1)OCCCC[P+](c1ccccc1)(c1ccccc1)c1ccccc1	cell growth or viability, SRB	48 h	15.3 µM
[CH3][Pd-2]([Cl])([N+](=Cc1ccc[nH]1)Cc1ccccc1)[N+](=Cc1ccc[nH]1)Cc1ccccc1	cell growth or viability, MTT	24 h	> 100 µg/mL
COc1ccc2nc(Cl)c(-c3nc4cc(Cl)c(Cl)cc4[nH]3)cc2c1	cell growth or viability, MTT	48 h	16.7 µM
O=C(NNc1nc(-c2ccccc2)cs1)c1cc2ccc(O)cc2oc1=O	cell growth or viability, SRB	72 h	2.6 µM

SMILES	assay	setting	IC50
Cc1cc(C#N)cc(C)c1Oc1cc(Nc2ccc(C#N)cc2)nc2cnccc12	–	48 h	> 128 µM
COc1cc(OC)c(/C=C/C(=O)c2c(OC)cc(OC)cc2OC)c(OC)c1	cell growth or viability, MTT	48 h	87.6 µM
CC(=O)OC[C@]1(C)CCC[C@]2(C)[C@@H]1CC[C@@]13C[C@@H](C[C@H](O)[C@H]12)[C@H](C)C3=O	cell growth or viability, MTT	–	> 20 µM
N#Cc1c(F)c(Cl)c2nc(SCC3CCCO3)nc(N)c2c1F (stereo not drawn)	cell growth or viability, MTT	96 h	26.1 µM
O=C(/C=C/c1ccc2c(c1)OCO2)/C=C/c1cn(-c2ccccc2)nc1C(=O)O	cell growth	72 h	> 25 µM
Fc1ccc2[nH]c(-c3cc4ccccc4nc3Cl)nc2c1	cell growth or viability, MTT	48 h	> 100 µM
Cc1nn(C)c(O)c1-c1nc2cc(Cl)c(Cl)cc2[nH]c1=O	cell growth or viability, MTT	72 h	> 50 µM
CCOc1cccc(/C=N/c2ccccc2Nc2ccccc2)c1O	cell growth or viability, MTT	48 h	71.2 µM
O=[N+]([O-])c1ccc(C(c2c(-c3ccccc3)[nH]c3ccccc23)c2c(-c3ccccc3)[nH]c3ccccc23)cc1	cell growth or viability, MTT	24 h	9.73 µM
CCNC(=S)N/N=C(\C)c1c(O)c2ccccc2oc1=O	cell growth or viability, MTT	48 h	46.4 µM
CC(=O)OC[C@H]1O[C@@H](Sc2nnc(-c3cc4ccccc4[nH]3)n2-c2ccc(Cl)cc2)[C@H](OC(C)=O)[C@@H](OC(C)=O)[C@@H]1OC(C)=O	cell growth or viability, MTT	–	21.6 µM
Cc1cc2nc(-c3cc4cc5c(cc4nc3Cl)OCO5)[nH]c2cc1C	cell growth or viability, MTT	48 h	> 100 µM
N#Cc1c(F)c(Cl)c2nc(SCc3ccccc3)nc(N)c2c1F	cell growth or viability, MTT	96 h	48.9 µM
O=S(=O)([O-])[O-].[Cu+2].c1ccc(-c2nnc(-c3ccc4c(c3)OCO4)[nH]2)nc1	cell growth or viability, MTT	24 h	5.98 µM
Cc1cc(/C=C/C#N)cc(C)c1Oc1cc(Nc2ccc(C#N)cn2)nc2cnccc12	–	48 h	9.6 ± 6.5 µM
CCOc1cc(/C=C/C(=O)/C=C/c2cn(-c3ccccc3)nc2C(=O)O)ccc1O	cell growth	72 h	> 25 µM
Nc1nc(-c2ccc3nc(-c4ccc(I)cc4)[nH]c3c2)c[nH]1	cell growth or viability, XTT	24 h	97.1 µM
COC(=O)[C@H](CC(C)C)NC(=O)CNC(=O)COc1ccc2c(C)cc(=O)oc2c1	cell growth or viability, MTT	–	72.1 µM
COCCOCCSc1nc(N)c2c(F)c(C#N)c(F)c(F)c2n1	cell growth or viability, MTT	96 h	14.9 µM
CS/C(=N/N=C(\C)c1ccc(S(=O)(=O)N2CCC(C)CC2)cc1)SCc1ccccc1	cell growth or viability, MTT	–	44.9 µM

Repeated from above:
SMILES	assay	setting	IC50
F[P-](F)(F)(F)(F)F.O=C(CCC(=O)c1ccccc1)NCCN(CC(=O)Nc1ccc(C#CCN(Cc2ccccn2)Cc2ccccn2)cc1)C(=O)CCc1cn(C[c-]2cccc2)nn1.[C-]#[O+].[C-]#[O+].[C-]#[O+].[Fe+2].[Re+].c1cc[cH-]c1	cell growth or viability, resazurin	48 h	> 100 µM
CC(C)(C)c1cc2c(O)c(c1)Cc1cc(C(C)(C)C)cc(c1OCC(=O)Nc1cncc3ccccc13)Cc1cc(C(C)(C)C)cc(c1O)Cc1cc(C(C)(C)C)cc(c1OCC(=O)Nc1cncc3ccccc13)COC2	cell growth or viability, MTT	72 h	2.3 µM
N#Cc1cccc(-c2ccc(=O)n(Cc3cccc(-c4ncc(OCC5CCN(CCCCCCC(=O)Nc6cccc7c6C(=O)N(C6CCC(=O)NC6=O)C7=O)CC5)cn4)c3)n2)c1 (stereo not drawn)	cell growth or viability, CCK-8	72 h	4.14 µM
O=C(Nc1ccccc1O)c1ccc(-c2ccc(Cl)cc2Cl)o1	cell growth or viability, MTT	–	6.98 µM
CC(=O)OC[C@H]1O[C@@H](Sc2nc3c4cnn(C(=O)CNc5ccc(C)cc5)c4ncn3n2)[C@H](OC(C)=O)[C@@H](OC(C)=O)[C@H]1OC(C)=O	cell growth or viability, MTT	48 h	0.048 µM
